Published values gathered from unrelated publications.
Values joined by “and” are separate records of one study, mostly repeats; a detail may differ. ± marks the error that the study gave.
ACHE: Acetylcholinesterase (ACHE, Homo sapiens, UniProt P22303)
inhA: Enoyl-[acyl-carrier-protein] reductase [NADH] (inhA, Mycobacterium tuberculosis, UniProt P9WGR1)

Protein sequences, listed by entry. Tags and fused reporters are not part of them. Residues count along the entry.
UniProt P22303, whole entry, looked up: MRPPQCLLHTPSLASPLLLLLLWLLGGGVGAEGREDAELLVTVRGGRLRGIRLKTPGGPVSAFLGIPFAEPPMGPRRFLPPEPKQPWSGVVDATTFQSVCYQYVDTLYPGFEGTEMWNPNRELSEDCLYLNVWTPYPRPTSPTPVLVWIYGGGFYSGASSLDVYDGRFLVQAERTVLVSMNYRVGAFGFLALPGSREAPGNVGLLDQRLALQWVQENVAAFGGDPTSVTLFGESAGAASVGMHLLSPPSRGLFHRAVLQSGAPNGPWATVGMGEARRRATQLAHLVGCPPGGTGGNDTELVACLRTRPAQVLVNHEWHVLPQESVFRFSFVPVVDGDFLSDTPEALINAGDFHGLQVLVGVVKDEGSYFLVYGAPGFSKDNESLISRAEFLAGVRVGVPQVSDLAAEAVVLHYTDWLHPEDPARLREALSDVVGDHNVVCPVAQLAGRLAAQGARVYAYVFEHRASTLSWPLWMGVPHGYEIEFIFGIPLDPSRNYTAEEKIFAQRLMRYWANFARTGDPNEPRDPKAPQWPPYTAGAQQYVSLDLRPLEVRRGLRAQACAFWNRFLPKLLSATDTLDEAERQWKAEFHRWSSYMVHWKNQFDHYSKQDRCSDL
UniProt P9WGR1, whole entry: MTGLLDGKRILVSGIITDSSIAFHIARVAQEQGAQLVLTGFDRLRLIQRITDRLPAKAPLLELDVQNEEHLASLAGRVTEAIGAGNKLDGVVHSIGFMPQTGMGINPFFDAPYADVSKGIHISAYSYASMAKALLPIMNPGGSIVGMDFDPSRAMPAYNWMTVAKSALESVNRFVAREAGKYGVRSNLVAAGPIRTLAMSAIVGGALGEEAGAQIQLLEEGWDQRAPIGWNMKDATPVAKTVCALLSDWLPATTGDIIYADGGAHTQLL
UniProt P20309, whole entry: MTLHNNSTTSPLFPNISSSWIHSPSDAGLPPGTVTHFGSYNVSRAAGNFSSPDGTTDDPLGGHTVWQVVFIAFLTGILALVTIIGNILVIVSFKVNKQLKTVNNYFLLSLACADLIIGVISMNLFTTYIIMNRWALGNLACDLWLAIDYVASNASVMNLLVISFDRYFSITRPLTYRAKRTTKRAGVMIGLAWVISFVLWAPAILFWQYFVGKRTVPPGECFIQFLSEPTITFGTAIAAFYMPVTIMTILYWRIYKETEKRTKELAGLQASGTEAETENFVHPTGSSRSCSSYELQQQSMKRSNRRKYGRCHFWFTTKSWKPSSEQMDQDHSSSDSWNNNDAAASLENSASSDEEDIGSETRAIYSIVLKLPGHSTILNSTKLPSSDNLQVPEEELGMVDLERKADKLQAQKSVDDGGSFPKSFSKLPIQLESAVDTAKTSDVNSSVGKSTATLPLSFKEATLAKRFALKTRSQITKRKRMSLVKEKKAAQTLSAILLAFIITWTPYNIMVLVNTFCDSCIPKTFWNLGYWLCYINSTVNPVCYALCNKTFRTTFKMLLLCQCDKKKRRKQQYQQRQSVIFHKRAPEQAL
UniProt P42866, whole entry: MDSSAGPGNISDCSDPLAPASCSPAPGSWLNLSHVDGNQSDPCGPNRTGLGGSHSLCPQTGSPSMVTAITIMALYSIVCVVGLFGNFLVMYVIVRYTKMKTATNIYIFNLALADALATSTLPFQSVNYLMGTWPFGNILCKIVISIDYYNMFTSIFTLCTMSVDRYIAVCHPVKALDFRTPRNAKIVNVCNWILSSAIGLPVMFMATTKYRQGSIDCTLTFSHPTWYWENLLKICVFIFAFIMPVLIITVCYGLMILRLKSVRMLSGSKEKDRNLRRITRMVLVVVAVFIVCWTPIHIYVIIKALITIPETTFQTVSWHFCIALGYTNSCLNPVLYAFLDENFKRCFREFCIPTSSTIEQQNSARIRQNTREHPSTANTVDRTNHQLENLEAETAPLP
UniProt P9WFX1, whole entry: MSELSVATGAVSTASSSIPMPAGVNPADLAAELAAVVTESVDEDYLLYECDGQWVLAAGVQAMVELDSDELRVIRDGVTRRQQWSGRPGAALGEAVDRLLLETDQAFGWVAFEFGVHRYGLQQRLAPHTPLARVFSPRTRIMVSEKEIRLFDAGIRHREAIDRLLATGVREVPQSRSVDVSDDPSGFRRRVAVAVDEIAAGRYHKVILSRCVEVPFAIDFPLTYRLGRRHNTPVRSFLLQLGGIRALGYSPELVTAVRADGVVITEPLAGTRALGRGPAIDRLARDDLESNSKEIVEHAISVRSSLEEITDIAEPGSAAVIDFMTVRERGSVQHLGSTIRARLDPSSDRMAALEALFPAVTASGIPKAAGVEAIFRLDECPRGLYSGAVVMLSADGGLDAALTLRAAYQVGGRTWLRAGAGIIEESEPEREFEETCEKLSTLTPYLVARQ
UniProt O15393, whole entry S251D/R252D/Q253D/S254D/R255K, looked up: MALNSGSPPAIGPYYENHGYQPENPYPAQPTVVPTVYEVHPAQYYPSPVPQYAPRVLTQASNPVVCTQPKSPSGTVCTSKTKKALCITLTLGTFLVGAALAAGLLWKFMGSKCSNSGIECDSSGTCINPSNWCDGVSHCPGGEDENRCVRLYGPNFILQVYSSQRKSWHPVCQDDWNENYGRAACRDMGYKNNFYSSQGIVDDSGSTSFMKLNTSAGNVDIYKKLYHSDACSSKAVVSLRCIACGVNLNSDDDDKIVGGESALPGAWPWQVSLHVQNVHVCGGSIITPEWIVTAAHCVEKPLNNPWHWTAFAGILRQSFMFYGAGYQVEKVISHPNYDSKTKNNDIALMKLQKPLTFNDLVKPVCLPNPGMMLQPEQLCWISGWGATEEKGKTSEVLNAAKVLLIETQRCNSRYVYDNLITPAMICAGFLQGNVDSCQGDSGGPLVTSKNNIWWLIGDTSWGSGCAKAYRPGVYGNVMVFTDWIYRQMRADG
UniProt R4P353, 1-724 S562A limits assumed: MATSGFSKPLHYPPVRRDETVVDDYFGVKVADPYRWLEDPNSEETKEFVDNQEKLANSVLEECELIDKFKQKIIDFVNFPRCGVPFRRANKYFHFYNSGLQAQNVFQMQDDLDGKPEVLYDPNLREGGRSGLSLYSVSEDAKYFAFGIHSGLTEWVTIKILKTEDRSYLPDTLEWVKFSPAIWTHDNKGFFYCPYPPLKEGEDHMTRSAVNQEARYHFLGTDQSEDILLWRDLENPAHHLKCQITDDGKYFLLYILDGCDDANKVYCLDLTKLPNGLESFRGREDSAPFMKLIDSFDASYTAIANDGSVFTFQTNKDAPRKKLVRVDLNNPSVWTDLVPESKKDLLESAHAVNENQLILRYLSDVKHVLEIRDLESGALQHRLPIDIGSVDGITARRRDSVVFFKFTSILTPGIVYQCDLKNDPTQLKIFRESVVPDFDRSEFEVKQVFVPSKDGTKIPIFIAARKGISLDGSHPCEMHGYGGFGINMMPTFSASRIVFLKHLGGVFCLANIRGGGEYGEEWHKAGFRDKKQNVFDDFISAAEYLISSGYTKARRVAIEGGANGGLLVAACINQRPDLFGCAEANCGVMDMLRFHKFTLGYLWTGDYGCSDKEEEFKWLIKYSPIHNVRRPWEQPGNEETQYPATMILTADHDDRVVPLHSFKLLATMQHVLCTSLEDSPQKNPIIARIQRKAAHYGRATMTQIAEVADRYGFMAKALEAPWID
UniProt Q9GZZ6, 25-450 limits assumed: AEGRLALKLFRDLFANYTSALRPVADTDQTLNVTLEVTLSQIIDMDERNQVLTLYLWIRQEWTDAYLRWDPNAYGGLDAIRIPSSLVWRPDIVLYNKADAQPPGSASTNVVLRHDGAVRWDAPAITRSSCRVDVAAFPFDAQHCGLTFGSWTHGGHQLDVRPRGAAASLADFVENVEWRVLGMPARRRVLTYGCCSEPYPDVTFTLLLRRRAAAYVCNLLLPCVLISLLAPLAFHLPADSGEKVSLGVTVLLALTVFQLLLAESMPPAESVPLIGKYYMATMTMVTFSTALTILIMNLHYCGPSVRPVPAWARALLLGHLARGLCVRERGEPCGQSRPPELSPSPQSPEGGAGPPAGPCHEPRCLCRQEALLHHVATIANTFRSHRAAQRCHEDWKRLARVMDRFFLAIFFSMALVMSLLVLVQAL
UniProt P41143, whole entry: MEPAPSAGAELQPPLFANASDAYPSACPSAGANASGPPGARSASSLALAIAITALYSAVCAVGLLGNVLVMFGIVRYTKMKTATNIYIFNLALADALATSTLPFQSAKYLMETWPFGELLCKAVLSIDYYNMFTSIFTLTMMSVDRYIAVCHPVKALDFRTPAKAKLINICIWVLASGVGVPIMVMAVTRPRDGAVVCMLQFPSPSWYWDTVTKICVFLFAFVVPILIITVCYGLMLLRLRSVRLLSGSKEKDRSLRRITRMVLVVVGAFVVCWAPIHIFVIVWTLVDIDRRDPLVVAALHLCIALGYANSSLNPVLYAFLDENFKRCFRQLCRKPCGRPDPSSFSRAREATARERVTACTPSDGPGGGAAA
UniProt Q9P0L9, whole entry F514A: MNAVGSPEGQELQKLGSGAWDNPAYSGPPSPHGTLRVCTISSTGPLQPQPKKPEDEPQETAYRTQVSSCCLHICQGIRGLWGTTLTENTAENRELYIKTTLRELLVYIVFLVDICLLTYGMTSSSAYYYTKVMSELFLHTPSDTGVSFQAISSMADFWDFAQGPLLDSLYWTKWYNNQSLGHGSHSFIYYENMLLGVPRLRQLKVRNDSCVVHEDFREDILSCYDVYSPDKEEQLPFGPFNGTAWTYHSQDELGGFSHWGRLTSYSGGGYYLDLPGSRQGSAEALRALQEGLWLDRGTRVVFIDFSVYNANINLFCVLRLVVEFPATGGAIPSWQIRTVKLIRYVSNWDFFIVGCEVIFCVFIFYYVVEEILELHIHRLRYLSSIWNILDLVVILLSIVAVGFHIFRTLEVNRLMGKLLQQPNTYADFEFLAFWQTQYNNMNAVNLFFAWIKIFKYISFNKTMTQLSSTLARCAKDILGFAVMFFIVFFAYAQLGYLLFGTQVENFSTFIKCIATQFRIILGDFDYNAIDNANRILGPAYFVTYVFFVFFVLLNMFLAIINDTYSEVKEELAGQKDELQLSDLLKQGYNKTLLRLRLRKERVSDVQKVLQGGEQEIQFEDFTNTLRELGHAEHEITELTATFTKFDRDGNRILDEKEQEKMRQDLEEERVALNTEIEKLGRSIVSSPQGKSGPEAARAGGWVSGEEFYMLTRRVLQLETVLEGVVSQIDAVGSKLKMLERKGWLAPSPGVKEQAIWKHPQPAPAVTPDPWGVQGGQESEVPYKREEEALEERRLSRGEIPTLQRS
UniProt P9WNX1, whole entry: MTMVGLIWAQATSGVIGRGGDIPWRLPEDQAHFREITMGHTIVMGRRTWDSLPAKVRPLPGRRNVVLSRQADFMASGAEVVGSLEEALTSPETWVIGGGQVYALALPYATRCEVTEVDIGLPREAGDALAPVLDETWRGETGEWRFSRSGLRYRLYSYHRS
UniProt O42275, whole entry, looked up: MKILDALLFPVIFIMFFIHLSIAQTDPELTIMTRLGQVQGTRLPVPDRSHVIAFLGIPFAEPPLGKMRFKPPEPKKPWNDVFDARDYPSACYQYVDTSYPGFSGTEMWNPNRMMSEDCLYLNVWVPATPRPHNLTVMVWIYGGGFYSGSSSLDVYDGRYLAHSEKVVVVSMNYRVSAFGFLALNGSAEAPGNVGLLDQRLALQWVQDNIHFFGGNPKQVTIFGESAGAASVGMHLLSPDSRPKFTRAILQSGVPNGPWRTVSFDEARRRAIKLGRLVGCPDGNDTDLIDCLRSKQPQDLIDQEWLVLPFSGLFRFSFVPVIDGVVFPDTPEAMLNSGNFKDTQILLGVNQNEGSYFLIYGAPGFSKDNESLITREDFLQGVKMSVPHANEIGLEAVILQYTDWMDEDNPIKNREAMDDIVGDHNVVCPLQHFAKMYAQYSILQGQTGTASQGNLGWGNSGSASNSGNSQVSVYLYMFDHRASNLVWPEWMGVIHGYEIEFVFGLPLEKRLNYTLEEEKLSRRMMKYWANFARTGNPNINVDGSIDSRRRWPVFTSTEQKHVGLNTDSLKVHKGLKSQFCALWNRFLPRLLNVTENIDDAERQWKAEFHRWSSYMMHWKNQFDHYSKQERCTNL
UniProt P54578, whole entry: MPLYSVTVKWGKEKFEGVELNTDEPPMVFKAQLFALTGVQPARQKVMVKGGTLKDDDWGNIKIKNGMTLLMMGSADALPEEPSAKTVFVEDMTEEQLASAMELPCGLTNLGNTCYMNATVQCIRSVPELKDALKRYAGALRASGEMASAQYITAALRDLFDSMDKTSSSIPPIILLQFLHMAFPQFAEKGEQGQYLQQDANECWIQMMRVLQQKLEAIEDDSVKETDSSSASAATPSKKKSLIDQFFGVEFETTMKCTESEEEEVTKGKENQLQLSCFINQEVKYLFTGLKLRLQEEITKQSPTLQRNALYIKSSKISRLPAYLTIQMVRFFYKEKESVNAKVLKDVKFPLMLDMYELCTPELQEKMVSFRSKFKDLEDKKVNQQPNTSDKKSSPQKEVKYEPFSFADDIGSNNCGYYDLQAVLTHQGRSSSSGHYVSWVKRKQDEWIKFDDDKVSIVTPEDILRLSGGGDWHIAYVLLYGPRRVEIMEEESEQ

Structure (SMILES) | target | test | test system | setting | how to read | quantity | result
CCN(CC)Cc1cc(N)ccc1O | ACHE | enzyme activity, noncompetitive inhibitor | – | with: acetylthiocholine | – | Ki' | 37.4 ± 2.1 µM
COc1ccc(CN[C@@H]2CO[C@H](C(c3ccccc3)c3ccccc3)C[C@H]2O)cc1 | Muscarinic acetylcholine receptor M3 (CHRM3, Homo sapiens, UniProt P20309) | radioligand binding | – | 10 µM, with: [3H]QNB | – | inhibition | -3.1%
O=C(N[C@@H]1CC[C@@]2(O)[C@H]3Cc4ccc(O)c5c4[C@@]2(CCN3CC2CC2)[C@H]1O5)c1ccncc1F | Mu-type opioid receptor (Oprm1, Mus musculus, UniProt P42866) | G protein activation | – | 1 µM, 24 h pretreatment, with: DAMGO | – | Emax | 156 ± 13.8 net fmol/mg
O=C(O)c1ccc(-c2ccc([N+](=O)[O-])cc2Cl)o1 | mbtI (Mycobacterium tuberculosis, UniProt P9WFX1) | enzyme activity | – | 100 µM, pH 7.5 | – | remaining activity | 11.3 ± 4.2%
CC(C)(C)O[C@@H]1C[C@@H](C(=O)N[C@H](Cc2ccccc2)C(=O)C(=O)NCc2ccc(Cl)cn2)N(C(=O)[C@@H](NC(=O)C2CCC(F)(F)CC2)C2CCCCC2)C1 | Transmembrane protease serine 2 (TMPRSS2, Homo sapiens, UniProt O15393, Q253D/R252D/R255K/S251D/S254D) | enzyme activity, inhibitor | – | 0.6859 µM | – | inhibition | 2.14% and -1.99% and 1.13%
COC(=O)[C@@H]1C=C(OC(=O)c2ccc(O)c(F)c2)C(=O)[C@H]2[C@@]1(C)CC[C@H]1C(=O)O[C@H](c3ccoc3)C[C@]21C | Mu-type opioid receptor, with beta-arrestin-2 (OPRM1, Homo sapiens, UniProt P35372) | β-arrestin-2 vs cAMP, agonist | – | – | baseline: DAMGO, higher = β-arrestin-2 bias | bias factor | 1.4
CC(C)[C@H](NC(=O)[C@@H]1CCCN1C(=O)[C@H](C)NC(=O)[C@H](CO)NC(=O)[C@H](C)NC(=O)[C@H](CC(N)=O)NC(=O)[C@H](CCC(=O)O)NC(=O)[C@@H](NC(=O)[C@H](CC(=O)O)NC(=O)[C@H](CCCCN)NC(=O)[C@H](C)NC(=O)[C@H](CCC(N)=O)NC(=O)[C@H](Cc1ccccc1)NC(=O)[C@H](C)NC(=O)[C@H](Cc1c[nH]c2ccccc12)NC(=O)[C@H](C)NC(=O)[C@@H](NC(=O)CN)C(C)C)C(C)C)C(=O)O | Peptide cyclase 1 (Gypsophila vaccaria, UniProt R4P353, S562A) | binding, isothermal titration calorimetry | – | pH 8.0, 25 °C | – | ΔG | -9.04 kcal/mol
CSCC[C@H](NC(=O)[C@H](Cc1ccccc1)NC(=O)CNC(=O)CNC(=O)[C@@H](N)Cc1ccc(O)cc1)C(=O)O | aminopeptidase III peak, rat | substrate | – | with: NAP-2 | – | Km | 106 µM
C#CCOCCC(=O)N[C@H](Cc1ccccc1)C(=O)N[C@@H](Cc1ccccc1)C(=O)N[C@@H](CCCNC(=N)N)C(=O)CCl | Replicase polyprotein 1ab, main protease (rep, Severe acute respiratory syndrome coronavirus 2, UniProt P0DTD1) | enzyme activity, inhibitor | – | – | baseline: PLpro IC50 over target IC50 | selectivity ratio | > 275 fold
c1ccc2c(c1)ccc[n+]2CCCCCCCCCC[n+]1cccc2ccccc21 | ACHE | – | – | – | baseline: BChE IC50 over AChE IC50 | selectivity ratio | 100
N#Cc1ccccc1Oc1ccc(Cn2cc(C3CC3)nn2)cc1O | inhA | – | – | 20 °C, EI* to EI | – | reverse isomerization rate k6 | 0.0052 ± 0.0002 min⁻¹
C[C@@H]1NC(=O)[C@H](CCCNC(=N)N)NC(=O)[C@H](CCCNC(=N)N)NC(=O)[C@@H]2CCCN2C(=O)[C@H](CO)NC(=O)[C@@H]2CSSC[C@H](NC(=O)CN)C(=O)N[C@@H](CSSC[C@@H](C(N)=O)NC(=O)[C@H](CO)NC(=O)[C@H](CCCNC(=N)N)NC1=O)C(=O)N[C@@H](CO)C(=O)N[C@@H](Cc1c[nH]cn1)C(=O)N1CCC[C@H]1C(=O)N[C@@H](C)C(=O)N2 | Neuronal acetylcholine receptor; alpha9/alpha10 (Homo sapiens, UniProt Q9GZZ6+Q9UGM1) | ion current, antagonist | Xenopus oocytes | 10 µM, 5 min, with: acetylcholine | baseline: control | remaining response | 10 ± 8%
N#Cc1ccccc1Oc1ccc(Cn2cc(C3CCCCC3)nn2)cc1O | inhA | enzyme inhibition, inhibitor, progress curve analysis | – | 20 °C | – | residence time | 119 ± 23 min
CN1CC[C@]23c4c5ccc(O)c4O[C@H]2c2ncc(-c4ccc(Cl)cc4)cc2C[C@@]3(OCCCc2ccccc2)[C@H]1C5 | Delta-type opioid receptor (OPRD1, Homo sapiens, UniProt P41143) | agonist | CHO membranes | – | – | Emax | 73 ± 1.5%
N#Cc1ccc(-c2ccc(COCCc3ccc(-c4nc5cc(-c6ccccc6)ccn5c4Nc4ccc(C(=O)O)cc4)cc3)cc2)nc1 | Tyrosyl-DNA phosphodiesterase 2 (TDP2, Homo sapiens, UniProt O95551) | – | – | – | baseline: TDP1 potency over TDP2 potency | selectivity | 36 fold
CC[C@H](C)[C@H](NC(=O)[C@@H]1CCCN1C(=O)[C@H](C)NC(=O)CNC(=O)CNC(=O)[C@H](CCCCN)NC(=O)[C@H](CC(C)C)NC(=O)[C@H](CCCNC(=N)N)NC(=O)[C@H](Cc1ccccc1)NC(=O)c1ccc(N=Nc2ccc(N(C)C)cc2)cc1)C(=O)N[C@@H](CCCCN)C(=O)NCC(=O)N[C@H](C(=O)NCCNc1cccc2c(S(=O)(=O)O)cccc12)C(C)C | Replicase polyprotein 1ab, papain-like protease 2 (rep, Porcine epidemic diarrhea virus, UniProt P0C6Y4, I1722L/N1686S/T1724W) | substrate | – | – | – | Km | 32.1 ± 12 µM
CN(C(=O)Cc1ccc(Cl)c(Cl)c1)C1CCCCC1N1CCCC1 (stereo not shown) | PKD2L1 (Homo sapiens, UniProt Q9P0L9, F514A) | ion current, screen | – | 1 µM, mutant F514A | baseline: vehicle | tail current | inhibited
NC1=NC2(CCCCC2)N(c2ccc(OCc3cn(CCCCOc4ccc(CCC(=O)O)c(O)c4)nn3)cc2)C(N)=N1 | Dihydrofolate reductase (folA, Mycobacterium tuberculosis, UniProt P9WNX1) | enzyme activity | – | – | baseline: human over M. tuberculosis | selectivity ratio | 188 fold
Cc1ccc(-c2csc(NP(=O)(O)OCC3OC(n4c[n+](Cc5ccccc5)c5c(=O)[nH]c(NC(=O)c6ccccc6)nc54)C4OC(C)(C)OC34)n2)cc1 (stereo not shown) | Eukaryotic translation initiation factor 4E, phosphorylated (EIF4E, Homo sapiens, UniProt P06730) | item: EIF4E expression | MCF7 | – | baseline: untreated | decrease | 25.6%
N#Cc1ccccc1Oc1ccc(Cn2cc(C3CCCC3)nn2)cc1O | inhA | enzyme inhibition, inhibitor, progress curve analysis | – | 20 °C | – | residence time | 106 ± 21 min
c1ccc2c[n+](CCCCCCCC[n+]3ccc4ccccc4c3)ccc2c1 | ACHE | – | – | – | baseline: BChE IC50 over AChE IC50 | selectivity ratio | 80
Cc1ccccc1Oc1ccc(Cn2cc(C3CC3)nn2)cc1O | inhA | – | – | 20 °C, EI* to EI | – | reverse isomerization rate k6 | 0.005 ± 0.002 min⁻¹
O=C(C1CCN(Cc2cccc3ccccc23)CC1)N1CCc2ccccc2C1 | Acetylcholinesterase (ache, Electrophorus electricus, UniProt O42275) | enzyme activity, inhibitor, Ellman | – | 64.4 µM, with: acetylthiocholine iodide | – | Vmax | 0.097 absorbance units/min
ON=C1c2nonc2C(=NO)c2nonc21 | Ubiquitin carboxyl-terminal hydrolase 14 (USP14, Homo sapiens, UniProt P54578) | inhibitor | – | 17 µM, 26S proteasome-bound | – | inhibition | 91%
Oc1cc(Cn2cc(C3CC3)nn2)ccc1Oc1ccccc1Cl | inhA | conformational change, second-harmonic generation | – | 10 µM, 30 min, His-tagged protein | – | SHG intensity increase | 19.7 ± 0.6%

For quick reference, copied from above:
Structure (SMILES) | target | test | test system | setting | how to read | quantity | result
CC(C)(C)O[C@@H]1C[C@@H](C(=O)N[C@H](Cc2ccccc2)C(=O)C(=O)NCc2ccc(Cl)cn2)N(C(=O)[C@@H](NC(=O)C2CCC(F)(F)CC2)C2CCCCC2)C1 | Transmembrane protease serine 2 (TMPRSS2, Homo sapiens, UniProt O15393, Q253D/R252D/R255K/S251D/S254D) | enzyme activity, inhibitor | – | 0.6859 µM | – | inhibition | 2.14% and -1.99% and 1.13%
COC(=O)[C@@H]1C=C(OC(=O)c2ccc(O)c(F)c2)C(=O)[C@H]2[C@@]1(C)CC[C@H]1C(=O)O[C@H](c3ccoc3)C[C@]21C | Mu-type opioid receptor, with beta-arrestin-2 (OPRM1, Homo sapiens, UniProt P35372) | β-arrestin-2 vs cAMP, agonist | – | – | baseline: DAMGO, higher = β-arrestin-2 bias | bias factor | 1.4
CC(C)[C@H](NC(=O)[C@@H]1CCCN1C(=O)[C@H](C)NC(=O)[C@H](CO)NC(=O)[C@H](C)NC(=O)[C@H](CC(N)=O)NC(=O)[C@H](CCC(=O)O)NC(=O)[C@@H](NC(=O)[C@H](CC(=O)O)NC(=O)[C@H](CCCCN)NC(=O)[C@H](C)NC(=O)[C@H](CCC(N)=O)NC(=O)[C@H](Cc1ccccc1)NC(=O)[C@H](C)NC(=O)[C@H](Cc1c[nH]c2ccccc12)NC(=O)[C@H](C)NC(=O)[C@@H](NC(=O)CN)C(C)C)C(C)C)C(=O)O | Peptide cyclase 1 (Gypsophila vaccaria, UniProt R4P353, S562A) | binding, isothermal titration calorimetry | – | pH 8.0, 25 °C | – | ΔG | -9.04 kcal/mol
CSCC[C@H](NC(=O)[C@H](Cc1ccccc1)NC(=O)CNC(=O)CNC(=O)[C@@H](N)Cc1ccc(O)cc1)C(=O)O | aminopeptidase III peak, rat | substrate | – | with: NAP-2 | – | Km | 106 µM
